# Measured values collected from several papers.
# Compare with care: the assays were run in different laboratories. Numbers after ± are the reported error.
# NPBWR1: Neuropeptides B/W receptor type 1 (NPBWR1, Homo sapiens, UniProt P48145)
# Chain of UniProt P48145 (whole entry, looked up): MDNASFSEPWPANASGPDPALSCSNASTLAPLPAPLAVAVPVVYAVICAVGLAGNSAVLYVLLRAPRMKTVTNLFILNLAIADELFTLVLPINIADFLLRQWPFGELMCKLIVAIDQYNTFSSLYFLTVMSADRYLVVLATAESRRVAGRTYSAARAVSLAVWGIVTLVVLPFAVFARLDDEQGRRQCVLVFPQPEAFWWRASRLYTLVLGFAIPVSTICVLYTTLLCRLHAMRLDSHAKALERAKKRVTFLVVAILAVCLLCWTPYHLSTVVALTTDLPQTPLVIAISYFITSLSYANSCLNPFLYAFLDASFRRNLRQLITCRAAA
# ADGRG1: ADGRG1 (Homo sapiens, UniProt Q9Y653)
# Chain of UniProt Q9Y653 (whole entry, unmodified, looked up): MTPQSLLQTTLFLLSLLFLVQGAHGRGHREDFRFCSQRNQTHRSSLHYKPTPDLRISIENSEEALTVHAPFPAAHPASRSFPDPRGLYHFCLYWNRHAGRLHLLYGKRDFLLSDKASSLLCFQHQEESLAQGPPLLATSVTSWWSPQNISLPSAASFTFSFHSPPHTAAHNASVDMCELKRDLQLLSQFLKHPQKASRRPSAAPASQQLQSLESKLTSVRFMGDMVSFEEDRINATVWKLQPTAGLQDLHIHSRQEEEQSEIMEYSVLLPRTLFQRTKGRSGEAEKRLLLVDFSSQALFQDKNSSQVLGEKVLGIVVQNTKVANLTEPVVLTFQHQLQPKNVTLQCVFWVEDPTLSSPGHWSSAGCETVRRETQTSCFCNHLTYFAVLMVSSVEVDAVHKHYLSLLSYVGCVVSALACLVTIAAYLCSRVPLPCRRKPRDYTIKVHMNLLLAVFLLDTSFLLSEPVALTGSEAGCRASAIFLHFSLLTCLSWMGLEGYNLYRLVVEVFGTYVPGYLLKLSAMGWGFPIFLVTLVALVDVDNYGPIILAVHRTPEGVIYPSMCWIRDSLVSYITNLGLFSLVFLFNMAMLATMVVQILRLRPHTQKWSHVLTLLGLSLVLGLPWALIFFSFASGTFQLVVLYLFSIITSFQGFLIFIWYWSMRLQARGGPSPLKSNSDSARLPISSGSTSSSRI
# CXCL8: Interleukin-8 (CXCL8, Homo sapiens, UniProt P10145)
# Chain of UniProt P10145 (whole entry, looked up): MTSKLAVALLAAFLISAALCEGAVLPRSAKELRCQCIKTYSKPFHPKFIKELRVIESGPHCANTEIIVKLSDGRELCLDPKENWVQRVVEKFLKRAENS
# G-protein coupled receptor 39: G-protein coupled receptor 39 (Mus musculus, UniProt Q5U431)
# Chain of UniProt Q5U431 (whole entry, looked up): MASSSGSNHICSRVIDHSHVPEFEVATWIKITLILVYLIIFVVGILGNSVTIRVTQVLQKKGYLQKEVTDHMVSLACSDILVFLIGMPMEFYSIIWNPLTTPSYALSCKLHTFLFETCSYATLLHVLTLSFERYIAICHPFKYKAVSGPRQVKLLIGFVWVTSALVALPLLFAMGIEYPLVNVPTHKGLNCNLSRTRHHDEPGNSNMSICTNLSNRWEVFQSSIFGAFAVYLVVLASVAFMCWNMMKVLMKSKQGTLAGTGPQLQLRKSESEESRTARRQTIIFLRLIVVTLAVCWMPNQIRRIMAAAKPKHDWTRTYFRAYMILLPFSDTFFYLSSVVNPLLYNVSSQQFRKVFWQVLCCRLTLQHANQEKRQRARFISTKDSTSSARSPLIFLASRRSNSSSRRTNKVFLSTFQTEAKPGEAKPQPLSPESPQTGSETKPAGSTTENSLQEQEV
# Kir3.1/Kir3.2: Kir3.1/Kir3.2 (Homo sapiens, UniProt P48051+P48549)
# Chain of UniProt P48051 (whole entry, looked up): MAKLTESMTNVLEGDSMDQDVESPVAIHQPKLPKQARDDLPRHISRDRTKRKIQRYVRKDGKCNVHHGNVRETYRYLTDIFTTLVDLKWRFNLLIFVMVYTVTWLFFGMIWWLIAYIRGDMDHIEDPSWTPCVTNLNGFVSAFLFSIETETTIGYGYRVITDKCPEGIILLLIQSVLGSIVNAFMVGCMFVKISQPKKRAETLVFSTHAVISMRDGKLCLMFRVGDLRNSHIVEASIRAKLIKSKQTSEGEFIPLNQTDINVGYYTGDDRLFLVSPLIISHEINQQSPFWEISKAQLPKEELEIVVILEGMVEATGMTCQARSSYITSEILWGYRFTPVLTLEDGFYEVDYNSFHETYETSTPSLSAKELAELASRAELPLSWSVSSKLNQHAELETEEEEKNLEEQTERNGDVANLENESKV
# Chain of UniProt P48549 (whole entry, looked up): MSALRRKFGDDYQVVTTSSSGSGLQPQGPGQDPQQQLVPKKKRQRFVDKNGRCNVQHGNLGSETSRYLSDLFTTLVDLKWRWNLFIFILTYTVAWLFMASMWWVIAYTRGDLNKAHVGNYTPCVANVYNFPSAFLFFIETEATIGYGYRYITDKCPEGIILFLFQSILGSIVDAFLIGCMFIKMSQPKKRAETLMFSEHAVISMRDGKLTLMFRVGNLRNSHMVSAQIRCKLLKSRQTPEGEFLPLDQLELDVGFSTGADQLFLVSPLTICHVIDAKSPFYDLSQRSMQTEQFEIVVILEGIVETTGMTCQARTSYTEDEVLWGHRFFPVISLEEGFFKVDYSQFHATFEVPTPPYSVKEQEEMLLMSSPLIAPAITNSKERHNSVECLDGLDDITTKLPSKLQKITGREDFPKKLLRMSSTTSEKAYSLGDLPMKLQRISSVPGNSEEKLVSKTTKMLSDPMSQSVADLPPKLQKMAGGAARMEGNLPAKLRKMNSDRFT
# GPBAR1: G-protein coupled bile acid receptor 1 (GPBAR1, Homo sapiens, UniProt Q8TDU6)
# Chain of UniProt Q8TDU6 (whole entry, looked up): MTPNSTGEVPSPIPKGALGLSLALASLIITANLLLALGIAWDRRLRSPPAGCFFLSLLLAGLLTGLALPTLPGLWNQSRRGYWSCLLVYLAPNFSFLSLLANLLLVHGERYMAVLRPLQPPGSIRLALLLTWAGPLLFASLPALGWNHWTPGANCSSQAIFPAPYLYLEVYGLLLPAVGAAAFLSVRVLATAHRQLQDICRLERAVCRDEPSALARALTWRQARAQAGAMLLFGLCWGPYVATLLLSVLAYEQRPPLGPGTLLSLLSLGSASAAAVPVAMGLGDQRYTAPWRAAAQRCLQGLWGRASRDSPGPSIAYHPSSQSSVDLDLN
# Chain of UniProt Q9H1C0 (whole entry, looked up): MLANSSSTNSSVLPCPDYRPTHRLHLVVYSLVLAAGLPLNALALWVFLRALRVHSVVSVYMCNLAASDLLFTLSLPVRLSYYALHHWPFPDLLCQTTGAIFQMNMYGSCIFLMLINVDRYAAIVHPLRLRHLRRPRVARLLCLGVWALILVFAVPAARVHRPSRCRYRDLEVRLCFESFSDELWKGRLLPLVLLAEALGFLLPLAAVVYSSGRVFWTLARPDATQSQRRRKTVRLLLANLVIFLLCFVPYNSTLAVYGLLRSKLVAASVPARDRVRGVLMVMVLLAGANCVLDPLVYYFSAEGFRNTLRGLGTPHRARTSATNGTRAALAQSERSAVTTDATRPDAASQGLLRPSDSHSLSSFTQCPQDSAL
# Chain of UniProt Q8TDU9 (whole entry, unmodified, looked up): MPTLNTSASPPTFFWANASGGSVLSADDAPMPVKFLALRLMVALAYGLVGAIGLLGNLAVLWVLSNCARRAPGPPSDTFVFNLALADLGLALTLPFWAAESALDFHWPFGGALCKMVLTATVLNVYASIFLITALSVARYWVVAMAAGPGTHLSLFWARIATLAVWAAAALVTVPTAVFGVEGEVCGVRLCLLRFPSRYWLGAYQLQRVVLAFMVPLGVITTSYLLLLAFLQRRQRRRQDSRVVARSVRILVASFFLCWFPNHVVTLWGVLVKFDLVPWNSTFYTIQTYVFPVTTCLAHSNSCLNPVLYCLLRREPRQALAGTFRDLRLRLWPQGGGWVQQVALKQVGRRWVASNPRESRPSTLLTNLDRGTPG
# Chain of UniProt Q9Y2R2 (whole entry, looked up): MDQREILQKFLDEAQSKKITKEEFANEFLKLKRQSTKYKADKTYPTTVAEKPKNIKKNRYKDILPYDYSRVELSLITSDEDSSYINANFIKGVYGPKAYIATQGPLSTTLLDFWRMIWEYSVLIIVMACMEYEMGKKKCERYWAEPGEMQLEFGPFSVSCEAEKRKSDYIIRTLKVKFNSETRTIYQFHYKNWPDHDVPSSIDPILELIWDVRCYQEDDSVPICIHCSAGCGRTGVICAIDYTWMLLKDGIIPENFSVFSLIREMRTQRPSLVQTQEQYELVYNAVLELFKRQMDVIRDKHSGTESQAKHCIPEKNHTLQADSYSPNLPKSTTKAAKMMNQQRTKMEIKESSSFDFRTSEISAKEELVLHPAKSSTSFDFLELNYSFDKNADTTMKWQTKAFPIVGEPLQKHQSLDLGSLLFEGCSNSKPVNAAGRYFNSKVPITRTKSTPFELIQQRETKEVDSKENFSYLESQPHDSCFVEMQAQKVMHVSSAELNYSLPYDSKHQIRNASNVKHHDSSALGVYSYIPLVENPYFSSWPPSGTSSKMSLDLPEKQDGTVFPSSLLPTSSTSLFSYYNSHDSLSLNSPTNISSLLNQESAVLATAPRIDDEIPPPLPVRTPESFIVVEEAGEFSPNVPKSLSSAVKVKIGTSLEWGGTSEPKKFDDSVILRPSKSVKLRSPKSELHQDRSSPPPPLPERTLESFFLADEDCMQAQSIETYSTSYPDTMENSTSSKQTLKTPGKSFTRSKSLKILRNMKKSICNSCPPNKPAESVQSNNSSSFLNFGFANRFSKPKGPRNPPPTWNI
# Chain of UniProt Q8VGS3 (whole entry, looked up): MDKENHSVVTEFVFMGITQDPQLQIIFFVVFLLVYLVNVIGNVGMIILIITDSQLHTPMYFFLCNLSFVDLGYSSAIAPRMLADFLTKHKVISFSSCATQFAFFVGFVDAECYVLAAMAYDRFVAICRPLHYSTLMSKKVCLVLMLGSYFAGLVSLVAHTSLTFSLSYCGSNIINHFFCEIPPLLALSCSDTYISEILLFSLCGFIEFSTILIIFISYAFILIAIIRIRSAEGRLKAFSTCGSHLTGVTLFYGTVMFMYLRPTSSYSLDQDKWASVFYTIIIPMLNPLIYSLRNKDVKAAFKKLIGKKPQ
# Chain of UniProt Q2G036 (whole entry, looked up): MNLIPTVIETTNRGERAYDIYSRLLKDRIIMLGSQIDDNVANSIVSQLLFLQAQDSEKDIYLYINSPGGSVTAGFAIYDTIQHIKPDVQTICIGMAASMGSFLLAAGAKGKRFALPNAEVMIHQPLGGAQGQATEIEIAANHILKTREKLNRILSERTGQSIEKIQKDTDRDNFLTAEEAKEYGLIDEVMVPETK
SMILES,tested on,test,test system,setting,how to read,quantity,value
CC(C)C[C@H](NC(=O)[C@@H](CC(C)C)NC(=O)CNC(=O)[C@H](C)NC(=O)[C@H](C)NC(=O)[C@H](CCCNC(=N)N)NC(=O)CNC(=O)CCCCNC(=O)CCCCNC(=O)CCCCNC(=O)[C@H](CCCCN)NC(=O)[C@H](Cc1ccc(O)cc1)NC(=O)[C@@H](N)Cc1c[nH]c2ccccc12)C(N)=O,NPBWR1,"calcium signal, agonist",,,,EC50,0.53 µM
CC1=C(C(=O)OC2CCCC2)C(c2ccccc2C(F)(F)F)C2=C(CC(C)(C)CC2=O)N1 (stereo not drawn),ADGRG1,"G13 activation, agonist, GTPγS binding, reconstitution",,,,EC50,1.75 ± 0.13 µM
Nc1ncnc2c1ncn2[C@@H]1O[C@H](COP(=O)(O)OP(=O)(O)OC[C@H]2OC(O)[C@H](O)[C@@H]2O)[C@@H](O)[C@H]1OP(=O)(O)O (stereo partly drawn),"TRPM2 (Nematostella vectensis, UniProt A7T1N0, M197C)",agonist,,,,EC50,0.3 ± 0.008 µM
CC(C)C[C@H](NC(=O)CNC(=O)[C@H](CO)NC(=O)[C@H](CC(C)C)NC(=O)[C@H](CC(C)C)NC(=O)CNC(=O)[C@H](C)NC(=O)[C@H](C)NC(=O)[C@H](CCCNC(=N)N)NC(=O)CNC(=O)[C@@H](NC(=O)[C@H](CO)NC(=O)[C@H](Cc1ccc(O)cc1)NC(=O)[C@H](CO)NC(=O)[C@H](CO)NC(=O)[C@H](Cc1cnc[nH]1)NC(=O)CNC(=O)[C@H](C)NC(=O)[C@H](C)NC(=O)[C@@H]1CCCN1C(=O)[C@H](CCCCN)NC(=O)[C@H](Cc1ccc(O)cc1)NC(=O)[C@@H](N)Cc1c[nH]c2ccccc12)C(C)C)C(N)=O,NPBWR1,"cAMP, agonist, TR-FRET",,,,EC50,0.0035 µM
CC(C)Oc1cc(Cl)ccc1CNc1cc(-c2ccccc2)nc2ncnn12,"GPR3 (Homo sapiens, UniProt P46089, V155A)","cAMP level, agonist, cAMP GloSensor",,V155A mutant,,EC50,0.122 µM
CC1=NC(C)C(C)S1 (stereo not drawn),"Olfactory receptor 5AR1 (Or5ar1, Mus musculus, UniProt Q8VGS3)","agonist, cAMP luminescence",HEK293 transfected,,,EC50,51.7 µM
CC(C)C[C@H](NC(=O)CNC(=O)[C@H](C)NC(=O)[C@H](C)NC(=O)[C@H](CCCNC(=N)N)NC(=O)CNC(=O)CCCCNC(=O)CCCCNC(=O)CCCCNC(=O)[C@H](C)NC(=O)[C@H](Cc1ccc(O)cc1)NC(=O)[C@@H](N)Cc1c[nH]c2ccccc12)C(=O)N[C@@H](CC(C)C)C(=O)N[C@@H](CO)C(N)=O,NPBWR1,"calcium signal, agonist",,,,EC50,0.478 µM
CC(C)(O)c1ccn2c(-c3ccc(F)c(-c4ccc(F)cc4C#N)c3)cnc2c1F,"GABRA1 (Homo sapiens, UniProt P14867, D219N)","Western blot, item: GABRA1 D219N protein level",HEK293T stably expressing α1 D219N,24 h,,EC50,1.3 ± 0.1 µM
CC(=O)N[C@@H]1[C@@H](O[C@@H]2O[C@H](C(=O)O)[C@@H](O[C@@H]3O[C@H](COS(=O)(=O)O)[C@@H](O)[C@H](O[C@@H]4O[C@H](C(=O)O)[C@@H](O)[C@H](O)[C@H]4O)[C@H]3NC(C)=O)[C@H](O)[C@H]2O)[C@H](O)[C@@H](COS(=O)(=O)O)O[C@H]1N=[N+]=[N-],CXCL8,"probe displacement, FP competition",,"protein 800 nM, together with: TAMRA-labelled sHA tetramer probe",,EC50,6280 ± 775 µM
Cn1c(=O)n(C2CCC(=O)NC2=O)c2ccc(C3CCN(CC(=O)Nc4cccc(CS(=O)(=O)N5CC[C@H](Nc6cccc(-c7sc(C(=O)O)c(OCC(=O)O)c7Cl)c6)CC5(C)C)c4)CC3)cc21 (stereo partly drawn),"PTPN22 (Homo sapiens, UniProt Q9Y2R2)",phosphatase activity,,together with: DiFMUP substrate,,EC50,> 10 µM
CC(CCC(=O)O)C1CCC2C3CCC4CC(OS(=O)(=O)O)CCC4(C)C3CC(O)C12C (stereo not drawn),G-protein coupled receptor 39,"calcium signal, agonist, fluorescence",,,,EC50,> 200 µM
O=C(Cc1ccc(OCc2ccccc2)cc1)NC1(C(=O)O)CCN(C(=O)c2ccc(-c3cccc(Cl)c3)cc2)CC1,"LPAR5 (Homo sapiens, UniProt Q9H1C0)","cAMP, agonist, luciferase",,,,EC50,> 10 µM
CC(CCC(=O)NCCS(=O)(=O)O)C1CCC2C3CCC4CC(O)CCC4(C)C3CCC12C (stereo not drawn),G-protein coupled receptor 39,"calcium signal, agonist, fluorescence",,,,EC50,44 µM
O=C(O)c1ccccc1OCc1ccccc1Br,"GTPase HRas (HRAS, Homo sapiens, UniProt P01112)","GTP binding, flow cytometry",,"EDTA, together with: BODIPY-GTP 100 nM",,EC50,0.11 µM
O=C(NC[C@@H](Cc1ccc(F)cc1)N1CCC(O)(C(F)(F)F)CC1)C1(c2ccc(Cl)cc2)CCCC1,"TRPA1 (Homo sapiens, UniProt O75762, I906A)",,,,,EC50,0.049 µM
CC(CCC(=O)NCC(=O)O)C1CCC2C3CCC4CC(OS(=O)(=O)O)CCC4(C)C3CC(O)C12C (stereo not drawn),G-protein coupled receptor 39,"calcium signal, agonist, fluorescence",,,,EC50,> 200 µM
COC1CN([C@H]2CC[C@H]([C@@]3(C)Oc4c(Cl)cc(C(=O)NCc5c(SC)cc(C)[nH]c5=O)c(C)c4O3)CC2)C1,,"RNA-seq, item: SV2C","human, whole blood","dose not given, 24 h",reference: pretreatment baseline,log2 fold change,1.45
O=C(COc1ccc(Cl)cc1Cl)Nc1cc(C2CC2)nn1C1CCOCC1,Kir3.1/Kir3.2,"activator, thallium flux",HEK293,,,EC50,0.176 µM
CC(=O)N[C@@H]1[C@@H](O[C@@H]2O[C@H](C(=O)O)[C@@H](O[C@@H]3O[C@H](COS(=O)(=O)O)[C@@H](OS(=O)(=O)O)[C@H](O[C@@H]4O[C@H](C(=O)O)[C@@H](OS(=O)(=O)O)[C@H](OS(=O)(=O)O)[C@H]4OS(=O)(=O)O)[C@H]3NC(C)=O)[C@H](OS(=O)(=O)O)[C@H]2OS(=O)(=O)O)[C@H](OS(=O)(=O)O)[C@@H](COS(=O)(=O)O)O[C@H]1N=[N+]=[N-],CXCL8,fluorescence polarization competition,,"CXCL8 800 nM, 100% DW, together with: TAMRA-labelled probe",,EC50,12.5 ± 2.9 µM
CC[C@H](C)[C@H]1C(=O)N(Cc2c3ccccc3cc3ccccc23)C[C@@H]2N(C(=O)NCCCC(F)(F)F)CCC(=O)N12,"clpP (Staphylococcus aureus, UniProt Q2G036)",activator,,,,EC50,1.7 µM
CC(CCC(=O)NCCS(=O)(=O)O)C1CCC2C3C(O)CC4CC(O)CCC4(C)C3CCC12C (stereo not drawn),G-protein coupled receptor 39,"calcium signal, agonist, fluorescence",,,,EC50,> 200 µM
CC(=O)N[C@@H]1[C@@H](O[C@@H]2O[C@H](C(=O)O)[C@@H](O[C@@H]3O[C@H](CO)[C@@H](O)[C@H](O[C@@H]4O[C@H](C(=O)O)[C@@H](OS(=O)(=O)O)[C@H](OS(=O)(=O)O)[C@H]4OS(=O)(=O)O)[C@H]3NC(C)=O)[C@H](OS(=O)(=O)O)[C@H]2OS(=O)(=O)O)[C@H](O)[C@@H](CO)O[C@H]1N=[N+]=[N-],CXCL8,fluorescence polarization competition,,"CXCL8 800 nM, 100% DW, together with: TAMRA-labelled probe",,EC50,71.2 ± 20.2 µM
CCc1cc(NC(=O)COc2cc(Cl)ccc2Cl)n(CC(F)(F)F)n1,Kir3.1/Kir3.2,"activator, thallium flux",HEK293,,,EC50,0.501 µM
CC(CCC(=O)O)C1CCC2C3C(O)CC4CC(OS(=O)(=O)O)CCC4(C)C3CCC12C (stereo not drawn),G-protein coupled receptor 39,"calcium signal, agonist, fluorescence",,,,EC50,> 200 µM
O=C(COc1cccc(Cl)c1Cl)Nc1cc(C2CC2)nn1C1CCOCC1,Kir3.1/Kir3.2,"activator, thallium flux",HEK293,,,EC50,0.245 µM
CC1CCc2nccnc21 (stereo not drawn),"uncharacterized protein (Puma concolor, UniProt A0A6P6H1F7)","cAMP, agonist",HEK293 transfected with uncharacterized protein,,,EC50,1060 ± 420 µM
C=CC(=O)Nc1cccc(Cn2ncc3cnc(Nc4cnn(CCOC)c4)nc32)c1,CSNK1A1 human,"binding, KINOMEscan",,100 nM,lower = stronger binding,percent of control,90%
CC(CCC(=O)NCC(=O)O)C1CCC2C3C(O)CC4CC(OS(=O)(=O)O)CCC4(C)C3CCC12C (stereo not drawn),GPBAR1,agonist,,,,EC50,> 200 µM
CC(=O)N[C@@H]1[C@@H](O[C@@H]2O[C@H](C(=O)O)[C@@H](OS(=O)(=O)O)[C@H](OS(=O)(=O)O)[C@H]2OS(=O)(=O)O)[C@H](OS(=O)(=O)O)[C@@H](COS(=O)(=O)O)O[C@H]1N=[N+]=[N-],CXCL8,"probe displacement, FP competition",,"protein 800 nM, together with: TAMRA-labelled sHA tetramer probe",,EC50,556 ± 67 µM
CC(CCC(=O)NCCS(=O)(=O)O)C1CCC2C3CCC4CC(O)CCC4(C)C3CC(O)C12C (stereo not drawn),GPBAR1,agonist,,,,EC50,1.9 ± 1.3 µM
COc1ccccc1C1C(C(=O)OC2CCCC2)=C(C)NC2=C1C(=O)CC(C)(C)C2 (stereo not drawn),ADGRG1,"G13 activation, agonist, GTPγS binding, reconstitution",,,,EC50,6.91 ± 1.02 µM
CC(CCC(=O)NCCS(=O)(=O)O)C1CCC2C3CCC4CC(OS(=O)(=O)O)CCC4(C)C3CC(O)C12C (stereo not drawn),G-protein coupled receptor 39,"calcium signal, agonist, fluorescence",,,,EC50,> 200 µM
CCc1cc(O)cc2c(/C=N/NC(=N)NCCc3ccc(Cl)cc3)c[nH]c12,"RXFP4 (Homo sapiens, UniProt Q8TDU9, T295A)",agonist,,,,EC50,0.00708 µM

# Some of these lines once more:
SMILES,tested on,test,test system,setting,how to read,quantity,value
CC[C@H](C)[C@H]1C(=O)N(Cc2c3ccccc3cc3ccccc23)C[C@@H]2N(C(=O)NCCCC(F)(F)F)CCC(=O)N12,"clpP (Staphylococcus aureus, UniProt Q2G036)",activator,,,,EC50,1.7 µM
O=C(O)c1ccccc1OCc1ccccc1Br,"GTPase HRas (HRAS, Homo sapiens, UniProt P01112)","GTP binding, flow cytometry",,"EDTA, together with: BODIPY-GTP 100 nM",,EC50,0.11 µM
